Measurements gathered from unrelated publications.
Lines come from different studies, so protocols differ. ± marks the error that the study gave.
Sample: plasma
Route: oral

Compound	system	setting	AUC
COc1cccc(-c2n[nH]c(SCc3ccccn3)n2)c1OC	Sprague-Dawley rat, both sexes	100 mg/kg	229000 ng·h/mL
CC(C)=CCC[C@](C)(O[C@@H]1O[C@H](CO)[C@@H](O)[C@H](O)[C@H]1O)[C@H]1CC[C@]2(C)[C@@H]1[C@H](O)C[C@@H]1[C@@]3(C)CC[C@H](O)C(C)(C)[C@@H]3CC[C@]12C	Sprague-Dawley rat	100 mg/kg of parent ginsenoside, 0 to 48 h, control group, no prebiotic	592 ± 257 ng·h/mL
Fc1ccc(Nc2n[nH]c3cccnc23)cc1Cl	Sprague-Dawley rat, male	15 mg/kg, 1 times daily, day 1	1150 µM·h
CC#C[C@]1(O)CC[C@H]2[C@@H]3CCC4=CC(=O)CCC4=C3[C@@H](c3ccc(N(C)C)cc3)C[C@@]21C	female Wistar rat	3 x 50 mg/kg	40700 ± 3350 ng·h/mL
CC(C)=CCC[C@](C)(O[C@@H]1O[C@H](CO)[C@@H](O)[C@H](O)[C@H]1O)[C@H]1CC[C@]2(C)[C@@H]1[C@H](O)C[C@@H]1[C@@]3(C)CC[C@H](O[C@@H]4O[C@H](CO)[C@@H](O)[C@H](O)[C@H]4O)C(C)(C)[C@@H]3CC[C@]12C	Sprague-Dawley rat	100 mg/kg of parent ginsenoside, 0 to 48 h, control group, no prebiotic	103 ± 28.5 ng·h/mL
C=C1[C@H](CO)[C@@H](O)C[C@@H]1n1cnc2c(=O)[nH]c(N)nc21	male Sprague-Dawley rat	1 mg/kg, together with: CdG 1 mg/kg	140 ± 21.7 ng·h/mL
CC(C)=CCC[C@](C)(O[C@@H]1O[C@H](CO)[C@@H](O)[C@H](O)[C@H]1O)[C@H]1CC[C@]2(C)[C@@H]1[C@H](O)C[C@@H]1[C@@]3(C)CC[C@H](O[C@@H]4O[C@H](CO)[C@@H](O)[C@H](O)[C@H]4O[C@@H]4O[C@H](CO)[C@@H](O)[C@H](O)[C@H]4O)C(C)(C)[C@@H]3CC[C@]12C	Sprague-Dawley rat	2000 mg/kg ginseng extract, control diet 2 weeks before dosing	11400 ± 4470 ng·h/mL
N#C[C@]1(CO)O[C@@H](n2cnc3c(=O)[nH]c(N)nc32)C[C@@H]1O	male Sprague-Dawley rat	1 mg/kg, together with: entecavir 1 mg/kg	143 ± 47.7 ng·h/mL
CCCSc1nc(N[C@@H]2C[C@H]2c2ccc(F)c(F)c2)c2nnn([C@@H]3C[C@H](OCCO)[C@@H](O)[C@H]3O)c2n1	female Wistar Han rats	20 mg/kg/day, week 52, carcinogenicity study	31.3 µM·h

Excerpt of the above:
Compound	system	setting	AUC
CC#C[C@]1(O)CC[C@H]2[C@@H]3CCC4=CC(=O)CCC4=C3[C@@H](c3ccc(N(C)C)cc3)C[C@@]21C	female Wistar rat	3 x 50 mg/kg	40700 ± 3350 ng·h/mL
